Published values of several laboratories.
Parts stem from different laboratories: compare values within a part only. Positions count from the first letter of the parent shown.

Sample 1
Target: RNA binding protein fox-1 homolog 2, RRM domain, GST-SBP tag (RBFOX2, Homo sapiens, UniProt O43251-10, residues 100-194)
Technique: RNA Bind-n-Seq
Molecule type: RNA
Matrix: in vitro
Tested at: 365 nM
Setting: natural RNA segment, single round, ends assumed
Baseline: no-protein control
Reading: higher = stronger binding
Constant ends, left off below: GGGAGUUCUACAGUCCGACGAUC … UGGAAUUCUCGGGUGCCAA
Target sequence (chain): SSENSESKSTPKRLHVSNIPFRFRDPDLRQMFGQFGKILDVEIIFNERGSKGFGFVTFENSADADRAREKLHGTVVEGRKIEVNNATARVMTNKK
Oligonucleotide	RBNS enrichment (R)
CAACUCAUAGCCAAGGUGGUCUGAUCGUAGACAUUCCUUCCCUGCCCCAUGCGCUUGCCUCUCUCUCUCUCUCUCUCUCUCUUUCUCUCUCUCUCUCUCUCUCUCUCUCU	1.49
GAUGUUUGCUCCAUAAACUCCACAGUCACUGUUUUCACAUUAAACAUGAAAGCAAAGCAAAACAAAACUUUGUUCGAUUUCUUACUUUACAUAGGAGAAUAUAUUUCCUC	0.791
AAUGGAGUACUCAUCUUCUCAUAGAAGAGCCGAUUAAUAUUAUCUAAGUACUUUAGUAGAAAACAACCUGUCAAUUUCUGAGGAAAAUAACAUUUUAGAAGCAAAGAACA	0.398
GAGAGCUGGUGCCCAGAGACUGACAGCCUGAUGCUCCCUCCCUGCCCUUGCCUGGGGAAGCCCACCAGGGGUUCUGGCUUCUGAGGGGCACCUGUCCCUCCUCUCCCCUC	0.541
UGUUUCUAUUAAAACAGACUAUUAUAAAGCUUUAAGUUGUCAACUUUGUUCUAAAUAUCAACUAGCGCAAGUGAAUACUGAAGAUUUCUUAGUCAGUUUUUAGGGGAUUU	0.395
ACCAGACUUUUAGGGAGACUGGACAAACAUCAGGACUGGCUUUUAUAAGUAGGCAGGUAAUCUUCAUGGGGACUGAGGUGAUUUUCUUGUACGUUUUACGUUUUCCUAUU	0.68
GUACUGCUGGACAGGCAUGUGUGCUCAAAGUACAUUGAUUGCUCAAAUAUAAGGAAAUGGCCCAAUGAACGUGGUUGUGGGAGGGGAAAGAGGAAACAGAGCUAGUCAGA	3.68
AAAAGAAAACAUAGGUCUCUUAAACCAGGCAACUUUCACGUUUUGGGAGUUGAGACUGAGCAAUUUCUCCUUGUAACAAAGAAUCUCCAUGAAAUUCUGUUUCAUCUGUU	0.304
GUUCACCCGCCAAAGACCCCUUCGGUGUGACCGGCAGCCUGGCUGACCGUGAGGGCCAGAGAGAGCCUUCACGGACGGCGCUGGUGGGUGAGCCGAGCUGUGGUGGCGGC	0.655
CUCCAGAAGCACCUCAACAAUGUCAGUGGCUGAGGCUGCACUCAGAGGGAUGACUGCUGGGGGUAGACUGGGUGCCAGGGGCCAUGGGCCCAGGACCCAGUCUUGGCCAU	0.602
UACUCUGCGUUGAUGUUUAUGAGAAGGUGGUCAUUAGAUGCAGUCUUUUCCUUUUUAAUCCCCUCUUAGCACUUCUGUGAGUGGAGAGGACAUUAAGUAAAAUUUGGAAU	1.08
UCAAUCAUGUACUUUAGUUUAAUGUAUAAAGAUUUUCUAGGAAAUGAUAUUGUGUAUUAAGACAUUCCUUAAUUAAAUUAGGACAAAAUGGCUGCUGUAUAUUUACAAUA	0.32

Sample 2
Target: Interferon regulatory factor 7, full length, phosphomimetic (IRF7, Homo sapiens, UniProt Q92985, residues 1-503, S471D/S472D/S475D/S476D/S477D/S483D/S484D/S487D)
Technique: protein-binding microarray
Molecule type: double-stranded DNA, one strand shown
Matrix: in vitro
Tested at: 2200 nM top
Setting: 60-bp whole probe
With: salmon DNA 0.4 mg/ml
Baseline: random background probes
Reading: higher = stronger binding
Constant ends, left off below: GCCTAGCAC … GTCTTGATTCGCTTGACGCTGCTG
Residues (chain): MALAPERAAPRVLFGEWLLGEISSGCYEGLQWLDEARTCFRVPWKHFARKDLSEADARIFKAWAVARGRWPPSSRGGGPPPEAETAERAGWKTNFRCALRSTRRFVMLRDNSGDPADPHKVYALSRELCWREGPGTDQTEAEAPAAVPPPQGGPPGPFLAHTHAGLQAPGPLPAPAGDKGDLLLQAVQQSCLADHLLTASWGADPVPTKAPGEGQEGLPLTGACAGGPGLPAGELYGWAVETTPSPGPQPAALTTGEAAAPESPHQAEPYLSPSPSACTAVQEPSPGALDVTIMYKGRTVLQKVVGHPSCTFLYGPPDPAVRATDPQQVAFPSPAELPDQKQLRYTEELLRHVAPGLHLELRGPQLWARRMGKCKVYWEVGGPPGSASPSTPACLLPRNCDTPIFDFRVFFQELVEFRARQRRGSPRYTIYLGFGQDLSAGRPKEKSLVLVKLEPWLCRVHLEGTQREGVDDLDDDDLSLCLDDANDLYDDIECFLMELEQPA
Oligonucleotide	fitted relative affinity [z-score]
TCACTTTTTTTTTTCCCACTGTGCTAG	3.25
GACCGTATCGACTTTCGGGACGTGCTA	3.2
TTAGGTATCGGGTTTCTGTTAGTGCTA	1.74
GACGCACTGGGGTTTCGGGACGTGCTA	0.856
GACGGCCTGCTTATCCTGACGTGCTAG	0.399
TTTTGTTGTTTTTTGGTTTCGTGCTAG	3.66
TCATCTCCCAAGTCTTGTACTGTGCTA	1.59
TCAAGAATGTTTTTCATACTGTGCTAG	-0.0926
TTAGAACTGGGGTACCGATTAGTGCTA	-0.378
TCATTTTTCTAAGTAAAACTGTGCTAG	1.01
GACGTTCTCCTTCTCCTGACGTGCTAG	1.9
TTTGGACTGGACACTGGGTTAGTGCTA	-0.174
GACGGACTGCTTTTCCTGAAGTGCTAG	0.455
GGCATTTTCGGGTAGATGGCCGTGCTA	5.25
GACGGTTTCGGGTTTCGGGACGTGCTA	9.71
TTAGGTTTCCTACTGCTTCAGTGCTAG	1.16
GACGGTTTCGGGTACCGGGACGTGCTA	5.63
TACGGTTTCGGTCTCGGGACGTGCTAG	6.7
CTCTACTTGTGTCTAGAGATGTGCTAG	0.856

Sample 3
Target: Ras GTPase-activating protein-binding protein 1, C-terminal RGG region (G3BP1, Homo sapiens, UniProt Q13283)
Sequence of UniProt Q13283 (whole entry, looked up): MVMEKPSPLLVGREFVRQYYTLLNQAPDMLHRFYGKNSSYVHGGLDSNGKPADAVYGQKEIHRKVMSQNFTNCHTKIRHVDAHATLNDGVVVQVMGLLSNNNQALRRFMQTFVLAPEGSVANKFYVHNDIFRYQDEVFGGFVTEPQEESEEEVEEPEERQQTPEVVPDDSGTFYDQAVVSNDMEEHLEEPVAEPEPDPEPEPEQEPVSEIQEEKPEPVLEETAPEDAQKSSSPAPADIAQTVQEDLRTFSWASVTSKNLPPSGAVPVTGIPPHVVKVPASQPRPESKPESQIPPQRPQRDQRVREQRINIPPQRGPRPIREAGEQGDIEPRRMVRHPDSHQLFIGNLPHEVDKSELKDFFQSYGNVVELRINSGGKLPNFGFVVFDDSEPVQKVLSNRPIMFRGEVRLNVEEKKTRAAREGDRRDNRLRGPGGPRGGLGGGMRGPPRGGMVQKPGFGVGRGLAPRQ
Technique: RNA Bind-n-Seq
Molecule type: RNA
Matrix: in vitro
Tested at: 1 µM
Setting: whole 134-nt RNA, ends assumed
With: 150 mM KCl
Baseline: input library
Reading: higher = stronger binding
Constant ends, left off below: GGGAGUUCUACAGUCCGACGAUC … UGGAAUUCUCGGGUGUCAAGG
Oligonucleotide	log2 enrichment
CAAGUCCUGUGCUACACAUCGUAUGUACCGAAUCGGGGUGGGGUGGGGUUUGGGGAAAGUAUUAUGUUACGCCGUUCGGAUCUGCACUUC	2.26
CACAGACAACACGCACCCUCACAGACACAGAGGGAAGGGGUUGGGAUGGGGACAGGGUGCACAGCAGGGCGGGGUAGGACCCCAGCCCCU	0.125
UUCCUCAAGUCCUGUGCUACACAUCGUAUGUACCGAAUCGUGUGUGUGUGUAAAGUAUUAUGUUACGCCGUUCGGAUCUGCACUUCCAGC	-0.143
UCUCCCCAGGAGCACAGAAAAUGGUUCUGCCCCCUCCACAGCUCCCACAGACCAGAGCCGGCCACCGUUGGAGGUGAGUCGCCCGCCCCU	0.326
CAAGUCCUGUGCUACACAUCGUAUGUACCGAAUCGGGAAAAAGGGAAAGGGAGGGAAAGUAUUAUGUUACGCCGUUCGGAUCUGCACUUC	1.76
CCUCAAGUCCUGUGCUACACAUCGUAUGUACCGAAUCGGGUGGGGUGGUGGGGAAAGUAUUAUGUUACGCCGUUCGGAUCUGCACUUCCA	0.875
UAACUUUAGAGGAGGAUCUGAUGGAUAUGGCAGUGGACGUGGAUUUGGGGAUGGCUAUAAUGGGUAUGGAGGAGGACCUGGAGGUGGCAG	-0.765
UCCUGUGCUACACAUCGUAUGUACCGAAUCAAACCCCCCCAAACCCCCAAACCCCCAAAAAAGUAUUAUGUUACGCCGUUCGGAUCUGCA	-0.624
CUCAAGUCCUGUGCUACACAUCGUAUGUACCGAAUCGGUUUUUGGAGGAAAGGAAAGUAUUAUGUUACGCCGUUCGGAUCUGCACUUCCA	-1.1
GUCCUGUGCUACACAUCGUAUGUACCGAAUCGGGAAAAAGGGAAAAAGGGAAAAAGGGAAAGUAUUAUGUUACGCCGUUCGGAUCUGCAC	-0.341
UCAAGUCCUGUGCUACACAUCGUAUGUACCGAAUCGGGGUUGGGUUGGGGUUGGGAAAGUAUUAUGUUACGCCGUUCGGAUCUGCACUUC	2.08
UCCUGUGCUACACAUCGUAUGUACCGAAUCGGGGAGGGGAAAAAAAGGGGUUUUUGGGGAAAGUAUUAUGUUACGCCGUUCGGAUCUGCA	1.83
CUGUGCUACACAUCGUAUGUACCGAAUCGGGGAAAAAAAGGGGUUUUUUUGGGGAAAGGGGAAAGUAUUAUGUUACGCCGUUCGGAUCUG	0.113
UCCUGUGCUACACAUCGUAUGUACCGAAUCGGGAAAAAAAGGGAAAAAAAGGGUUUGGGAAAGUAUUAUGUUACGCCGUUCGGAUCUGCA	-0.809

Sample 4
Target: CCNA1, cyclin fold, Cln2 fusion (human)
Technique: yeast growth competition, sequencing
Matrix: yeast
Setting: weak parent motif
Baseline: not given
Reading: higher = stronger binding
Starting sequence: DTL docking peptide (human); PSSMRKICTYFHR
Change	normalised enrichment score
PSSMRKICTYFHA [R13A]	-0.679
PSSMAKICTYFHR [R5A]	-0.195
PSSMRKICTAFHR [Y10A]	0.0807
PSSMRKICTYFAR [H12A]	-0.23
PSAMRKICTYFHR [S3A]	-0.412
PSSMRKIATYFHR [C8A]	-0.89
PASMRKICTYFHR [S2A]	-0.0695

Mixed results
Molecule	target	test	test system	conditions	how to read	endpoint	result
PhoQ, residues 284 288 289 292 302 303 SCCLKL	PhoP, residues 12 14 15 18 19 NHTVL (Escherichia coli, UniProt P23836)	Sort-seq, measured: YFP reporter	E. coli	PhoQ-PhoP variant library, with: 10 µM Mg2+	baseline: high Mg2+ state, higher = stronger signaling	fold induction	0.779

Some of these lines once more (sample 1):
Oligonucleotide	RBNS enrichment (R)
GAGAGCUGGUGCCCAGAGACUGACAGCCUGAUGCUCCCUCCCUGCCCUUGCCUGGGGAAGCCCACCAGGGGUUCUGGCUUCUGAGGGGCACCUGUCCCUCCUCUCCCCUC	0.541
UCAAUCAUGUACUUUAGUUUAAUGUAUAAAGAUUUUCUAGGAAAUGAUAUUGUGUAUUAAGACAUUCCUUAAUUAAAUUAGGACAAAAUGGCUGCUGUAUAUUUACAAUA	0.32
AAUGGAGUACUCAUCUUCUCAUAGAAGAGCCGAUUAAUAUUAUCUAAGUACUUUAGUAGAAAACAACCUGUCAAUUUCUGAGGAAAAUAACAUUUUAGAAGCAAAGAACA	0.398
